# Published values gathered from unrelated publications.
# Lines come from different studies, so protocols differ.
# Target: Serine/threonine-protein kinase DCLK3 (DCLK3, Homo sapiens, UniProt Q9C098)
Structure (SMILES),assay,conditions,how to read,measurement,value
CCN1CCN(Cc2ccc(C(=O)Nc3ccc(C)c(NCc4cnc5[nH]ccc5c4OC)c3)cc2C(F)(F)F)CC1,"binding, competition with immobilised ligand",1 µM,,remaining binding,100%
O=C(Cc1ccc(OCc2ccccc2)cc1)NC1(C(=O)O)CCN(C(=O)c2ccc(-c3cccc(Cl)c3)cc2)CC1,"enzyme activity, inhibitor",10 µM,,activity vs control,123%
Cc1ccc(-c2c(/C=C(\C#N)C(=O)NC(C)C)n(CCCO)c3ncnc(N)c23)cc1,"cell-free assay, competition with immobilised ligand",1 µM,,remaining binding,100%
C=CC(=O)N1CCCC(n2c(=O)c3ncccc3n(Cc3ccc(Oc4ccccc4)cc3)c2=O)C1 (stereo not shown),"cell-free assay, competition with immobilised ligand",1 µM,,remaining binding,92%
C=CC(=O)N1CCc2ccc(-n3c(=O)ccc4cnc5ccc(-c6cnn(C)c6)cc5c43)cc21,KINOMEscan,1 µM,relative to: DMSO control,remaining binding,100%
CNC(=O)C[C@H](Cc1ccc(C#N)cc1)NC(=O)c1cc(-c2ccc(CN[C@H](C)c3ccc(C)cc3)o2)ccc1Cl,"enzyme activity, inhibitor",1 µM,,activity vs control,106%
Cc1cnc2nc1Nc1cccc(c1)COC/C=C/COCc1cc(ccc1OCCN1CCOCC1)N2,"binding, competition with immobilised ligand",0.1 µM,,remaining binding,100%
COc1cc(Nc2nccc(-c3cnn4nc(OC)ccc34)n2)cc(C(F)(F)F)c1,"binding, competition with immobilised ligand",1 µM,,remaining binding,95%
CNC(=O)C1CCN(c2cc(C)c(F)cc2NC(=O)c2ccc(-c3cc(O)ccc3C)c(C)c2)CC1,"binding, competition with immobilised ligand",1 µM,,remaining binding,100%
C[C@]1(O)CCCN(c2nc(Nc3ccc(S(=O)(=O)N[C@H]4CC[C@H](CN5CCN(c6ccc(C7CCC(=O)NC7=O)cc6F)CC5)CC4)cc3)ncc2C(F)(F)F)C1 (stereo partly shown),"binding, competition with immobilised ligand",1 µM,,remaining binding,3.3%
COc1cc(Nc2nc(C)cc(-c3cnn4nc(OC)ccc34)n2)cc(C(F)(F)F)c1,inhibitor,"1 µM, DCAMKL3",relative to: control,remaining activity,100%
CNC1C[S+]2CC[S+]3CC[S+](C1)[Ru-4]321([N]=C=S)[n]2c3ccc(OC)cc3c3c4c(c5cc(F)c[n+]1c5c32)C(=O)NC4=O (stereo not shown),KinomeScan,0.1 µM,relative to: untreated,remaining binding,48%
CN1CC[C@@H](COc2cnc(C#N)cc2-c2ccn3nc(NC(=O)C4CC4)cc3c2)C1,"enzyme activity, inhibitor",1 µM,,inhibition,-7%
COc1c(Cl)cccc1Nc1c(-c2ccncc2C#C[C@@]2(C)CCCN2C(=O)/C=C/CN(C)C)[nH]c2c1C(=O)NCC2,"binding, competition with immobilised ligand",3 µM,,remaining binding,100%
CC(C)=CC1OC(C)(C)C2C=C3C(=O)C(Cl)=CC(O)C3C3C(O)C4OC4C(=O)C132 (stereo not shown),"cell-free assay, competition with immobilised ligand",10 µM,,remaining binding,100%
Nc1ncc2c(n1)-c1c([nH]c3ccc(C4=CCOCC4)cc13)CCC2,"binding, competition with immobilised ligand",1 µM,,remaining binding,100%

# For quick reference, copied from above:
Structure (SMILES),assay,conditions,how to read,measurement,value
Cc1ccc(-c2c(/C=C(\C#N)C(=O)NC(C)C)n(CCCO)c3ncnc(N)c23)cc1,"cell-free assay, competition with immobilised ligand",1 µM,,remaining binding,100%
